Results of several laboratories.
A part holds a random share of what one study measured. Substitutions count along the parent as printed.

Sample 1 — target: CCND2, cyclin fold, Cln2 fusion (human); method: yeast growth competition, sequencing; matrix: yeast; setting: weak parent motif; relative to: not given; reading: higher = stronger binding
Parent: RBL2 docking peptide (human); STTRRRLFVENDS
| Variant | normalised enrichment score |
| --- | --- |
| T3H | -0.0368 |
| V9D | 0.0498 |
| R4H | -0.0726 |
| S1T | 0.214 |
| F8W | -0.0307 |
| T3C | 0.243 |
| D12S | 0.218 |
| E10F | 0.271 |
| R4Q | 0.226 |
| T2H | 0.461 |
| T2Q | 0.391 |
| S13P | 0.284 |
| R6G | -0.374 |
| R6M | 0.2 |
| S13D | 0.415 |
| R6E | 0.494 |
| L7G | -0.594 |

Sample 2 — method: RNA Bind-n-Seq; molecule type: RNA; matrix: in vitro; concentration: 200 nM; setting: whole 134-nt RNA, ends assumed; with: 150 mM KCl; relative to: input library; reading: higher = stronger binding
Target: Ras GTPase-activating protein-binding protein 1, full length (G3BP1, Homo sapiens, UniProt Q13283)
Sequence of UniProt Q13283 (whole entry, looked up): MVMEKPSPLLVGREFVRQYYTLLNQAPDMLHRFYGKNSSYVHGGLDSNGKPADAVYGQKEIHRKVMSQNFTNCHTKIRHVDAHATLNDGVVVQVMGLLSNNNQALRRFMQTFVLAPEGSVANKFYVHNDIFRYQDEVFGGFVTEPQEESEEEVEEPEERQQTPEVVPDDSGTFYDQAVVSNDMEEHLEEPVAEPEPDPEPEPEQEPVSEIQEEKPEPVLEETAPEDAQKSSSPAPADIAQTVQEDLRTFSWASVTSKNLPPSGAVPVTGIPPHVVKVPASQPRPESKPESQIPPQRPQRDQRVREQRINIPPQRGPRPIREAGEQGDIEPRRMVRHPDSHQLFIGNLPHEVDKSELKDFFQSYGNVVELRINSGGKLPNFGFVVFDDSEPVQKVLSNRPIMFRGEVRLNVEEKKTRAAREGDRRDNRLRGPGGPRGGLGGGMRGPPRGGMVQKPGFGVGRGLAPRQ
| Oligonucleotide | log2 enrichment |
| --- | --- |
| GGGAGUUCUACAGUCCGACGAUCCCUCAAGUCCUGUGCUACACAUCGUAUGUACCGAAUCGGUUGGUUGGGGUUGGAAAGUAUUAUGUUACGCCGUUCGGAUCUGCACUUCCAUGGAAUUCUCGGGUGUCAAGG | -0.326 |
| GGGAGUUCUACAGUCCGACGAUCUGGGAGGUGGAUUUUGUUUAUUUUUUUAGCUCAUUUCCAGGGGUGGGAAUUUUUUUUUAAUAUGUGUCAUGAAUAGAGUUGUUUUUGAAAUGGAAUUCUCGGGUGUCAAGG | 0.269 |
| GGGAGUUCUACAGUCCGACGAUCCUCAAGUCCUGUGCUACACAUCGUAUGUACCGAAUCGGAGGUUUUUUUGGAGGAAAGUAUUAUGUUACGCCGUUCGGAUCUGCACUUCCAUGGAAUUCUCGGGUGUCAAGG | -0.492 |
| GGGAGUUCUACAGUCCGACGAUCAAGUCCUGUGCUACACAUCGUAUGUACCGAAUCGGUUUUGGGUUUUGGUUUUGGGGAAAGUAUUAUGUUACGCCGUUCGGAUCUGCACUUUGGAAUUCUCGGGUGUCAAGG | -1.15 |
| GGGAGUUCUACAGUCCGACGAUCAGUCCUGUGCUACACAUCGUAUGUACCGAAUCGGAAAAAGGGGAAAAAGGAAAAAGGGAAAGUAUUAUGUUACGCCGUUCGGAUCUGCACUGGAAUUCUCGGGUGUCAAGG | -0.912 |
| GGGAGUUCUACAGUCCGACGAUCUUUUGCAUUUAGGGUUUUAACCAAGAAGAUCUGGAAGAAGAAAAAGGUGAAACACAGGUAAAAGAAGCAGAAGAUUCAGAUUCUGAUGAUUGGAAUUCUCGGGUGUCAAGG | -2.23 |
| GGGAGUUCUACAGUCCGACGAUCUCCAAACCCAAGAAAAAGAAAUCUUUUUCCAAGGAGGAGUUGAUGAGUAGCGAUCUUGAAGAGACCGCUGGCAGCACCAGUAUUCCCAAGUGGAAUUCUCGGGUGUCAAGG | -0.715 |
| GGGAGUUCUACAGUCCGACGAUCUAACUUUAGAGGAGGAUCUGAUGGAUAUGGCAGGGGACGUGGAUUUGGGGAUGGCUAUAAUGGGUAUGGAGGAGGACCUGGAGGUGGCAAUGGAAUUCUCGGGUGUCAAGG | 0.605 |
| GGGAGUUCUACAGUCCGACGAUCGUCCUGUGCUACACAUCGUAUGUACCGAAUCGGGUUUGGGUUUUUGGGAAAAAAAGGGAAAGUAUUAUGUUACGCCGUUCGGAUCUGCACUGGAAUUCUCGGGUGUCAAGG | -0.377 |
| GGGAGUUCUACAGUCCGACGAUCCUCAAGUCCUGUGCUACACAUCGUAUGUACCGAAUCGGAAAAAAAGGUGGAGGAAAGUAUUAUGUUACGCCGUUCGGAUCUGCACUUCCAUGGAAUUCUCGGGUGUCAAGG | -0.397 |
| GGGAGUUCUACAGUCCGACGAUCCACAGACAACACGCACCCACACAGACACAGAGGGAAGGGGUUGGGAUGGGGACAGGGUGCACAGCAGGGCGGGGUAGGACCCCAGCCUCUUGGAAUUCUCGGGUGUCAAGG | 1.79 |
| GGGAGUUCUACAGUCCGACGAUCUCAAGUCCUGUGCUACACAUCGUAUGUACCGAAUCGGGGUGGGGUGGGGUGGGGAAAGUAUUAUGUUACGCCGUUCGGAUCUGCACUUCCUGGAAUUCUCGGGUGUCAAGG | 1.25 |
| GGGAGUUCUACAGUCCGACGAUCCACAGCCAACACGCACCCACACAGACACAGAGGGAAGGGGUUGGGAUGGGGACAGGGUGCACAGCAGGGCGGGGUAGGACCCCAGCCCCUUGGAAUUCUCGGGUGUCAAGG | 1.87 |
| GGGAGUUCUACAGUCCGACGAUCGUCCUGUGCUACACAUCGUAUGUACCGAAUCGGAAAAAGGUUUUUUUGGAAAAAAAGGAAAGUAUUAUGUUACGCCGUUCGGAUCUGCACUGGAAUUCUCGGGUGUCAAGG | -1.39 |

Sample 3 — method: protein-binding microarray; molecule type: double-stranded DNA, one strand shown; matrix: in vitro; concentration: 0.8 µM; setting: whole 60-bp probe, no competitor; reading: higher = stronger binding
Target: Centromere-binding protein 1, full length, N-terminal tag (CBF1, Saccharomyces cerevisiae, UniProt P17106, residues 1-351)
Sequence of UniProt P17106 (whole entry, looked up): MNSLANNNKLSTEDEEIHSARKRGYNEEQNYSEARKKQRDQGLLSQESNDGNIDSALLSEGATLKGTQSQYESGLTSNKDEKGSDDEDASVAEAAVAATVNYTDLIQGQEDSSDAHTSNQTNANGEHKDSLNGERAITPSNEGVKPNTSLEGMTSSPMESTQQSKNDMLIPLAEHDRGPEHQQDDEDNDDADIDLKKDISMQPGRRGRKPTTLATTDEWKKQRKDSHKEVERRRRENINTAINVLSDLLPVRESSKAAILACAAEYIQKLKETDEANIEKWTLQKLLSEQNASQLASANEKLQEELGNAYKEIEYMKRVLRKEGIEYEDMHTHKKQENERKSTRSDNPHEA
| Oligonucleotide | fluorescence intensity [a.u.] |
| --- | --- |
| TGTACGAAGCTATTTCACCATATTATAGTAGTTAGGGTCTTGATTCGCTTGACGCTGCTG | 557 |
| TGTACGAAGCTATTGGACGTGGTTATAGTAGTTAGGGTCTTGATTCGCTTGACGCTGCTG | 518 |
| CTATGTGTGCGACGACACATGATCATATGGCATTTCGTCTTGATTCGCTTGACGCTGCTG | 2080 |
| GAATGCTTTGGCCTACGTGTGCGGTACTCGTTTTAGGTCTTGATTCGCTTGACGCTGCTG | 492 |
| GAATTTTTTTCAGAAAACGTGAAACTGGGTAACTAGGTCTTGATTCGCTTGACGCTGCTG | 692 |
| CTAATTCATGATAGTAAACAGGTGAATTAAGATTTCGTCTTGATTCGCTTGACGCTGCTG | 539 |
| CTATATATTTCGTATGTCATGTGGAGTATATATTTCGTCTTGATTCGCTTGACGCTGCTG | 1340 |
| CTAAGTGATTTTTATCACGTGACACTTTTTTATTTCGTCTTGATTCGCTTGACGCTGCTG | 33000 |
| TGTACGAAGCTATGTCTCGTGGGTATAGTAGTTAGGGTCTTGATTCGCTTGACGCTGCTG | 647 |
| CCTAACTACTATAAGCACATGACATAGCTTCGTACAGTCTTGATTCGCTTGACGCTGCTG | 1750 |
| CTAGTTCCGGGTAGTCACATGGAAACAATGGCATTCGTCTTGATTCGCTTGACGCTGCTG | 2170 |
| GAACGTTGACTTCGTCATCTGACTTAATAGCAGTAGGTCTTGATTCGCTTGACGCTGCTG | 1670 |
| CTACTTGTCTCAGGTCACACCATTCACGATTCCTTCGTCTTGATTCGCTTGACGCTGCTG | 802 |
| CTAACTTTGAACGATCACCTCTGCAATGTGACATTCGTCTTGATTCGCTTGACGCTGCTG | 536 |
| CTATAGACAGAAAATCACGCCTGTAGGGGTCCATTCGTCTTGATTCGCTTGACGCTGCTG | 571 |

Sample 4 — method: protein-binding microarray; molecule type: double-stranded DNA, one strand shown; matrix: in vitro; concentration: 250 nM; setting: 60-bp whole probe; with: salmon DNA 0.4 mg/ml; relative to: random background probes; reading: higher = stronger binding; shared flanks, not repeated: GCCTAGCAC … GTCTTGATTCGCTTGACGCTGCTG
Target: Interferon regulatory factor 5, full length, phosphomimetic (IRF5, Homo sapiens, UniProt Q13568-2, residues 1-514, K96S/S451D/S453D/S456D/S462D)
| Oligonucleotide | log fluorescence [z-score] |
| --- | --- |
| CTTCTCCTCTAGGTTCTCTGAGTGCTA | 0.229 |
| TCAGGCTTTCCTTTATGACTGTGCTAG | 0.164 |
| TCAATCATTGTTTTCAGTTTGTGCTAG | 2.61 |
| GACGGACTGGGGACTGAGGACGTGCTA | -0.576 |
| TCAAGGCCAGGGTTTCTGTTGTGCTAG | 0.366 |
| TCAACTCTCTGGGCTGTGACTGTGCTA | 0.00691 |
| GACGGACTGTTTCTCCTGACGTGCTAG | 0.819 |
| GACGATTTCGGGACCGGAGACGTGCTA | 2 |
| TTAGATTTGGGGACTGGATTAGTGCTA | -0.0992 |
| AAGCTCCTATCTTATGATATAGTGCTA | 0.279 |
| TTAGGTATCGGTTTCGGCTAGTGCTAG | 9.81 |
| GACTGACTGGACTATCGGGACGTGCTA | 0.896 |
| GACGATTTCTGGTTTCGAGACGTGCTA | 3.97 |
| TTCGGTATCGGTTTCGGTTAGTGCTAG | 11.3 |
| AATTTTGTCATCTATAATGGAGTGCTA | 0.92 |
| TGCTCCTTCTGACATCAACCCGTGCTA | 0.185 |
| TCAGTGCTCATCTGTCATACTGTGCTA | -0.0311 |

Sample 5 — method: protein binding microarray; molecule type: double-stranded DNA, one strand shown; matrix: in vitro; concentration: not given; relative to: not given; reading: higher = stronger binding
Target: Histone acetyltransferase KAT6A, winged helix 1, GST fusion (KAT6A, Homo sapiens, UniProt Q92794, residues 1-85)
Setting: 8-mer, flanks averaged, mean of 2 arrays, mostly near background
Construct (chain): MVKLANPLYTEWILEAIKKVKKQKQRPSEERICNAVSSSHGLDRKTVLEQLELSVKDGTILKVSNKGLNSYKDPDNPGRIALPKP
| Oligonucleotide | E-score |
| --- | --- |
| ACTTGTCA | -0.0735 |
| TATGATAA | -0.158 |
| CGCTGCCG | 0.396 |
| AAGAGCGA | 0.0169 |
| CGAATGGC | 0.0192 |
| CGTGAAAA | 0.00124 |
| AAACTACA | -0.126 |
| CGCATCTA | 0.177 |
| CTTGTTGC | -0.109 |
| TCTGGTCA | -0.311 |
| AGTCGTGG | -0.141 |
| GACCGAAA | -0.0237 |
| CGGTCGCA | 0.253 |
| CTGTTCTA | -0.144 |
| GATTCAGC | 0.0329 |
| CCGACCAG | 0.0823 |
| AGGATCTC | -0.226 |
| AAATCGTT | -0.125 |
| AGTAATAC | -0.0247 |
| GTGGTCTA | -0.101 |
| ACATTCCC | 0.0804 |
| CGAGCCCC | 0.0324 |
| CTCACGGA | 0.192 |
| TCTCTTCA | -0.096 |
| CTCCTCTC | -0.0722 |
